Assay results pooled from the literature.
Compare with care: the assays were run in different laboratories. Values joined by “and” are separate records of one study, mostly repeats; a detail may differ. ± marks the error that the study gave.
UniProt P04843, sequence (whole entry, looked up): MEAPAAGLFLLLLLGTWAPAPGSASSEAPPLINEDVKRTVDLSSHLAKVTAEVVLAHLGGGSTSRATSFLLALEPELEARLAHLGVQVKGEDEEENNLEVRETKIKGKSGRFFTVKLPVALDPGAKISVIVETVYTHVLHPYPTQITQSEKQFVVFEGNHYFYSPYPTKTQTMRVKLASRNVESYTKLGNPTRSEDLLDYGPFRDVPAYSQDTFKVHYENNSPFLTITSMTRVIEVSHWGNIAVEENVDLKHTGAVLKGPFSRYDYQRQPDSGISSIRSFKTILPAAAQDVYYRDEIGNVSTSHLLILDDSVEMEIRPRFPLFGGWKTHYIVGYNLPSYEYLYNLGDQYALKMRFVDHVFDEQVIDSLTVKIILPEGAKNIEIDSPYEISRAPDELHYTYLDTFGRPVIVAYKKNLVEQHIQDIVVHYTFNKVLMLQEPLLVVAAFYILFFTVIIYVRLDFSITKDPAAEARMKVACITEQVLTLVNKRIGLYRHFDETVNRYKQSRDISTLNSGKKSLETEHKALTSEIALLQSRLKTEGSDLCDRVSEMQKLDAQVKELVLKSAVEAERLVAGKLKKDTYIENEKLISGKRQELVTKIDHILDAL

`CC[C@H](C)[C@@H]1NC(=O)[C@@H]2CCCN2C(=O)[C@H](CC(C)C)NC(=O)[C@H](CC(C)C)NC(=O)CNC(=O)[C@@H](NC(=O)[C@@H](NC(=O)[C@H](CC(=O)O)NC(=O)CNC(=O)[C@@H](NC(=O)[C@H](C)NC(=O)CNC(=O)[C@H](CCCCN)NC(=O)[C@H](CC(C)C)NC(=O)[C@H](CC(C)C)NC(=O)[C@H](CCCCN)NC(=O)CNC(=O)[C@@H](NC(=O)[C@@H](N)CC(C)C)C(C)C)C(C)C)C(C)C)CSSC[C@@H](C(=O)O)NC1=O` — result for “log2 fold change”: -1.2 (RNA-seq, measured: Adnp mRNA; mouse traumatic brain injury, frontal cortex and hippocampus; dose not given; baseline: TBI plus compound vs TBI).
For `C=CCNc1c(O)cc2c(O)c1C[C@@H](C)C[C@H](OC)[C@H](O)[C@@H](C)/C=C(\C)[C@H](OC(N)=O)[C@@H](OC)/C=C\C=C(/C)C(=O)N2`, “median time to tumour progression” read 12 weeks (GIST patients; dose not given).
The Vmax/Km of `Oc1cc(Br)cc(Br)c1Oc1ccc(Br)cc1Br` is reported as 83.3 ± 24.4 µL/min/mg (glucuronidation; human liver microsomes).
`C[C@H]1CN(c2n[nH]c3nc(N[C@H]4CC[C@H](NS(=O)(=O)CCC(F)(F)F)CC4)ncc23)CCO1` has a remaining binding of 1.15 (Dolichyl-diphosphooligosaccharide--protein glycosyltransferase subunit 1 (Homo sapiens, UniProt P04843); Kinobeads competition, measured: RPN1; 20 µM, unit not given; baseline: vehicle).
`C=CCc1ccccc1OCC(O)CNC(C)C` (stereo not shown) gave an IC50 of 2000 nM (Plasmodium falciparum; W2).
`O=C(c1ccc(C#Cc2cccc(F)c2)nc1)N1CCC(O)CC1`: “population spike inter-event interval” 86.5 ± 11.7% (rat hippocampal CA3 slices; 10 µM, 10 min, spontaneous epileptiform activity; baseline: baseline).
`CCCCC1(CCCC)CN(c2ccccc2)c2cc(SC)c(OCC(=O)N[C@@H](C(=O)NCC(=O)O)c3ccccc3)cc2S(=O)(=O)C1` gave a serum LDL-C of 99.6 mg/dL (measured: LDL cholesterol; human, serum; 5 mg once daily, day 9).
For `CC[C@H](C)[C@H](NC(=O)[C@H](CCCNC(=N)N)NC(=O)[C@H](CO)NC(=O)[C@H](Cc1ccc(O)cc1)NC(=O)[C@@H](NC(=O)[C@@H](NC(=O)[C@H](C)NC(=O)CN)C(C)C)[C@@H](C)O)C(=O)N[C@@H](CO)C(=O)NCC(=O)N[C@@H](CCC(N)=O)C(=O)N[C@@H](Cc1ccc(O)cc1)C(=O)O`, the MIC was greater than 512 µM (broth microdilution; 168, Mueller-Hinton broth; 16 to 18 h, 37 °C).
Under “log2 fold change”, `Nc1ncnc2c1ncn2[C@@H]1O[C@H](COP(=O)(O)O)[C@@H](OP(=O)(O)O)[C@H]1O` is recorded as -0.309 (binding, MIDAS equilibrium dialysis LC-MS; A2AR-BRIL thermostabilized; concentration not given; baseline: no-protein control).
For `Fc1ccc(C(OCCCc2c[nH]cn2)c2ccc(F)cc2)cc1`, the IC50 was 1000 nM (Plasmodium falciparum; GB4).
`C=CC(=O)Nc1cc(Nc2ncc(Cl)c(Nc3ccccc3C(=O)C(=O)N(C)C)n2)c(OC)cc1N1CCN(C)CC1` — result for “patients with progressive disease”: 50% (RECIST v1.1 best response; human EGFR T790M NSCLC; oral, 200 mg/day, per-protocol set).
`CC[C@H](C)[C@H](NC(=O)[C@H](CCC(=O)O)NC(=O)[C@H](CCCNC(=N)N)NC(=O)[C@H](CCCNC(=N)N)NC(=O)[C@H](CCCNC(=N)N)NC(=O)[C@H](CCC(N)=O)NC(=O)[C@H](CCCNC(=N)N)NC(=O)[C@H](CCCNC(=N)N)NC(=O)[C@H](CCCCN)NC(=O)[C@H](CCCCN)NC(=O)[C@H](CCCNC(=N)N)NC(=O)CNC(=O)[C@H](Cc1ccc(O)cc1)NC(C)=O)C(=O)N[C@@H](CC(=O)O)C(=O)N[C@@H](Cc1c[nH]cn1)C(=O)N[C@@H](CC(=O)O)C(N)=O` — result for freezing time: “increased” (fear conditioning; db/db mouse; dose not given, 8 weeks; baseline: scrambled peptide).
`CC[C@H](C)[C@H](NC(=O)[C@H](CCCNC(=N)N)NC(=O)[C@H](CO)NC(=O)[C@H](Cc1ccc(O)cc1)NC(=O)[C@@H](NC(=O)[C@@H](NC(=O)[C@H](C)NC(=O)CNC(=O)[C@H](CCCCN)NC(=O)[C@@H](N)CCCCN)C(C)C)[C@@H](C)O)C(=O)N[C@@H](CO)C(=O)NCC(=O)N[C@@H](CCC(N)=O)C(=O)N[C@@H](Cc1ccc(O)cc1)C(=O)N[C@@H](CCCCN)C(=O)O` gave an MIC of greater than 96 µM (broth microdilution; 29213, Mueller-Hinton broth; 16 to 18 h, 37 °C).
`Cn1cc(Nc2nccc(-c3ccc4c(c3)CN(C3COC3)CC[C@H]4NC(=O)c3cn(C(C)(C)C)nn3)n2)cn1`: “pathway activation z-score” 2.5 (measured: Death Receptor Signaling; splenic B cells, Mus musculus; 30 mg/kg, together with: IgD activation; baseline: vehicle, direction not given).
The total cholesterol of `C[C@H]1O[C@@H](O[C@H]2CC[C@@]3(C)[C@@H](CC[C@]4(C)[C@@H]3C=C[C@]35OC[C@@]6(CCC(C)(C)C[C@H]63)[C@@H](O)C[C@]54C)[C@]2(C)CO)[C@H](O)[C@@H](O[C@@H]2O[C@H](CO)[C@@H](O)[C@H](O)[C@H]2O)[C@H]1O` is reported as 2.37 mM and 2.57 mM and 2.03 mM and 2.54 mM and 3.06 mM (Mus musculus, pair-fed, AAV8-TBG-Null vector, plasma; oral, high dose, 5 h).
`CN1CCN(S(=O)(=O)c2cc([N+](=O)[O-])ccc2N(CCOS(C)(=O)=O)CCOS(C)(=O)=O)CC1` gave an event-free survival of 39.4 days (NSG mice, sample BC PDX; intraperitoneal, 25 mg/kg weekly x3).
`C[C@]12CC[C@@H](O)C[C@@H]1CC[C@@H]1[C@@H]2CC[C@]2(C)[C@@H]([N+](=O)[O-])CC[C@@H]12` — result for “time in open areas”: “increased” (elevated zero maze; male NIH Swiss mice; i.p., 10 mg/kg; baseline: vehicle).
The urinary excretion of `C[C@]1(CO)Cc2ncn(-c3ccc(C#N)c(Cl)c3)c2C(=O)O1` is reported as 143 mmol (aldosterone synthesis, inhibitor, measured: sodium; healthy Japanese adults, urine; 40 mg, 0-24 h after first dose, multiple rising dose).
`CO[C@H]1C[C@@H]2CC[C@@H](C)[C@@](O)(O2)C(=O)C(=O)N2CCCC[C@H]2C(=O)O[C@H]([C@H](C)C[C@@H]2CC[C@@H](OC(=O)NCCOCCOCCOCCOCCOCCOCCOCCOCCC(=O)N3CCc4cc(Cn5nc(-c6ccc7oc(N)nc7c6)c6c(N)ncnc65)ccc4C3)[C@H](OC)C2)C[C@@H](O)[C@H](C)/C=C(\C)[C@@H](O)[C@@H](OC)C(=O)[C@H](C)C[C@H](C)/C=C/C=C/C=C/1C` — result for “decreased appetite leading to dose reduction”: 0% (patients with advanced solid tumours; intravenous, 12 mg weekly, any grade).

For quick reference, copied from above:
`CC[C@H](C)[C@H](NC(=O)[C@H](CCCNC(=N)N)NC(=O)[C@H](CO)NC(=O)[C@H](Cc1ccc(O)cc1)NC(=O)[C@@H](NC(=O)[C@@H](NC(=O)[C@H](C)NC(=O)CNC(=O)[C@H](CCCCN)NC(=O)[C@@H](N)CCCCN)C(C)C)[C@@H](C)O)C(=O)N[C@@H](CO)C(=O)NCC(=O)N[C@@H](CCC(N)=O)C(=O)N[C@@H](Cc1ccc(O)cc1)C(=O)N[C@@H](CCCCN)C(=O)O` gave an MIC of greater than 96 µM (broth microdilution; 29213, Mueller-Hinton broth; 16 to 18 h, 37 °C).
`C[C@H]1CN(c2n[nH]c3nc(N[C@H]4CC[C@H](NS(=O)(=O)CCC(F)(F)F)CC4)ncc23)CCO1` has a remaining binding of 1.15 (Dolichyl-diphosphooligosaccharide--protein glycosyltransferase subunit 1 (Homo sapiens, UniProt P04843); Kinobeads competition, measured: RPN1; 20 µM, unit not given; baseline: vehicle).
